Results gathered from unrelated publications.
Protocols differ between the studies behind these lines. Several values in a cell are separate wells, animals, samples, runs or records. Numbers after ± are the reported error.

O=C(/C=C/c1ccc(O)cc1)c1ccc(F)cc1 — IC50 (WRL68; cell growth or viability, MTT; 72 h): 11.1 µM
C=CCNC1=C2C[C@@H](C)C[C@H](OC)[C@H](O)[C@@H](C)/C=C(\C)[C@H](OC(N)=O)[C@@H](OC)/C=C\C=C(/C)C(=O)NC(=CC1=O)C2=O — IC50 (LAPC4; AR transcriptional activity, antagonist, PSA promoter luciferase; 24 h): 0.001 to 0.003 µM and 0.0017 µM
C(=C\c1ccccc1)/c1ccccc1 — IC50 (MOLT-3; cell growth or viability, ATP luminescence; 24 h): 180 µM
COc1cc(C(=O)c2sc3ccccc3c2NC(C)=O)cc(OC)c1OC — IC50 (L1210; cell growth or viability; 24 h): 1.89 µM
c1cnc2ccc(Nc3nc(NC4CC4)c4nc[nH]c4n3)cc2c1 — IC50 (p110δ-positive AML cell lines; cell proliferation, MTT; 72 h, mean of 11 cell lines): 0.3 µM
Cc1c2c(cc3c(-c4ccccc4)cc(=O)oc13)C(=O)CC1(CCNCC1)O2 — IC50 (NIH3T3; hyaluronan secretion; 72 h): 1.69 ± 0.75 µM
COc1ccc(/C=C\c2cc(OC)c(OC)c(OC)c2)cc1O — IC50 (MDA-MB-435; cell growth or viability, SRB): 0.0034 µM
O=c1[nH]nc(O)c2c(-c3ccc(Cl)cc3)c3n(c12)CCn1cccc1-3 — IC50 (PANC-1; cell growth or viability, MTT; 48 h): 47 µM
COc1ccccc1-c1nccc(COc2ccccc2C[C@@H](Oc2cccc3oc(-c4ccc(F)cc4)c(-c4ccc(OCCN5CCN(C)CC5)c(Cl)c4C)c23)C(=O)O)n1 — IC50 (NCI-H929; cell viability, MTT; 48 h, 10% CFS): 0.047 µM
Cc1cc(C(=O)/C(=C\c2ccc(Br)cc2)c2ccc(Br)cc2)c(C(=O)N2CCCCC2)c(=O)[nH]1 — IC50 (human primary dermal fibroblasts; cell proliferation, MTT; 72 h): > 10 µM
CCCCCCCCCCCCCCCCCCOP(=O)([O-])OC1CC[N+](C)(C)CC1 — IC50 (MDA-MB-231 LINK-A PIP3-BM knock-out; spheroid growth, 3D spheroid viability): 0.0113 µM
Cn1nnc2c(C(N)=O)ncn2c1=O — IC50 (PANC-1; cell proliferation, MTS; 24 h, together with: 10 µM HNL): 126 µM
CN1CCc2c(c3ccccc3n2Cc2ccc(C(=O)NO)cc2)C1 — IC50 (Jurkat J.gamma1; cell viability, MTS): > 20 µM
COc1cccc2c1C(=O)c1c(O)c3c(c(O)c1C2=O)C[C@@](O)(C(=O)CO)C[C@@H]3O[C@H]1C[C@H](N)[C@H](O)[C@H](C)O1 — IC50 (SK-OV-3; cell growth or viability, MTT; 72 h): 2.88 µM
CCn1c(C)c(C(=O)O)c(-c2cccc(N3CCN(c4ccc(NS(=O)(=O)c5ccc(N[C@H](CCN(C)C)CSc6ccccc6)c([N+](=O)[O-])c5)cc4)CC3)c2)c1-c1ccc(Cl)cc1 — IC50 (NCI-H146; cell growth or viability; 96 h): 0.0081 µM
CC[C@]1(O)C[C@H]2CN(CCc3c([nH]c4ccccc34)[C@@](C(=O)OC)(c3cc4c(cc3OC)N(C=O)[C@H]3[C@@](O)(C(=O)OC)[C@H](OC(C)=O)[C@]5(CC)C=CCN6CC[C@]43[C@@H]65)C2)C1 — IC50 (HCT-15/ADM2-2; cell growth, XTT; 72 h): 2.73 µg/mL
COc1cc(C[C@H]2C(=O)OC[C@@H]2Cc2ccc(OC)c(OC)c2)ccc1O — IC50 (CCRF-CEM; cell growth or viability, CCK-8; 48 h): > 30 µM
C=C(Br)C(=O)Nc1c(C(=O)c2cc(OC)c(OC)c(OC)c2)sc2c(C)cccc12 — IC50 (L1210; cell growth or viability; 24 h): 0.06 µM
CCCCCc1ccc(-c2cc3ccccc3[nH]2)cc1 — IC50 (HEK293 NF-κB luciferase reporter; reporter gene, refers to: NF-κB; 6 h, together with: TNFα): 18.1 ± 5 µM
COC(=O)c1c(-c2cc(OC)c(OC)c(OC)c2)c2n(c1C(=O)OC)CCn1cccc1-2 — IC50 (PANC-1; cell growth or viability, MTT; 48 h): 66 µM
C=CC(C)(C)c1cc2c(cc1O)OC[C@H](c1cc(-c3oc4cc(O)ccc4c3C(=O)c3cc(C(C)(C)C=C)c(O)cc3O)c(O)cc1O)C2 — IC50 (Hepa1c1c7; cell growth): 15.6 µM
O=C(N/N=C/c1cc(-c2ccccc2)ccc1O)c1ccccc1O — IC50 (PANC-1; cell growth or viability; 72 h): 2.4 µM

Excerpt of the above:
CCCCCc1ccc(-c2cc3ccccc3[nH]2)cc1 — IC50 (HEK293 NF-κB luciferase reporter; reporter gene, refers to: NF-κB; 6 h, together with: TNFα): 18.1 ± 5 µM
C=CC(C)(C)c1cc2c(cc1O)OC[C@H](c1cc(-c3oc4cc(O)ccc4c3C(=O)c3cc(C(C)(C)C=C)c(O)cc3O)c(O)cc1O)C2 — IC50 (Hepa1c1c7; cell growth): 15.6 µM
CN1CCc2c(c3ccccc3n2Cc2ccc(C(=O)NO)cc2)C1 — IC50 (Jurkat J.gamma1; cell viability, MTS): > 20 µM
